# Results collected from several papers.
# Amino acid sequences for entries named in this document (tags omitted). Residues count along the entry.
# UniProt P04757, whole entry, looked up: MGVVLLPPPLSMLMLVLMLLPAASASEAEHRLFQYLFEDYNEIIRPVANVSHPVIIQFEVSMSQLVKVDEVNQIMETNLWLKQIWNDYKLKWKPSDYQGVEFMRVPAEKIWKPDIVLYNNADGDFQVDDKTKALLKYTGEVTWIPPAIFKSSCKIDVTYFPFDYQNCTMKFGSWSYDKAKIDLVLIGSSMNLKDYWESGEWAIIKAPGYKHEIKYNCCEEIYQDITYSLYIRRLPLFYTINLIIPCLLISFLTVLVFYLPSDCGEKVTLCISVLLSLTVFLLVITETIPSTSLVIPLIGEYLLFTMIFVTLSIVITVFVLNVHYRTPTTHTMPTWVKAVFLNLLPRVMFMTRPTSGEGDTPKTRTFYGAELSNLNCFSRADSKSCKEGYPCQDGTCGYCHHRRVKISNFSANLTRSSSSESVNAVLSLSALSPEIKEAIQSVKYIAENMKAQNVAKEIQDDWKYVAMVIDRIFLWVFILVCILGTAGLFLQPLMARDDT
# UniProt P04757, 26-499 limits assumed: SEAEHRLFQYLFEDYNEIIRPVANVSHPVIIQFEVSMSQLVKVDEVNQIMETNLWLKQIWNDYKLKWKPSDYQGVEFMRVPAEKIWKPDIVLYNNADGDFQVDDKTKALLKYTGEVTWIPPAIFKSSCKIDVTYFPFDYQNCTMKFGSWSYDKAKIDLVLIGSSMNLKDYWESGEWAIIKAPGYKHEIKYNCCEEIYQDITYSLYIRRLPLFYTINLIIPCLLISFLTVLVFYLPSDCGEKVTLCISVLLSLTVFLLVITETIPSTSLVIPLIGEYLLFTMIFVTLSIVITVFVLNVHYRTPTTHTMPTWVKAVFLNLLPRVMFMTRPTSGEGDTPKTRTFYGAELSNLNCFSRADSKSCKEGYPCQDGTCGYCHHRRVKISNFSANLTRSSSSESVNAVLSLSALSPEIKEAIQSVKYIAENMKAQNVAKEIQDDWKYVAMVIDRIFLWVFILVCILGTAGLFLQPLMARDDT
# UniProt P12390, whole entry, looked up: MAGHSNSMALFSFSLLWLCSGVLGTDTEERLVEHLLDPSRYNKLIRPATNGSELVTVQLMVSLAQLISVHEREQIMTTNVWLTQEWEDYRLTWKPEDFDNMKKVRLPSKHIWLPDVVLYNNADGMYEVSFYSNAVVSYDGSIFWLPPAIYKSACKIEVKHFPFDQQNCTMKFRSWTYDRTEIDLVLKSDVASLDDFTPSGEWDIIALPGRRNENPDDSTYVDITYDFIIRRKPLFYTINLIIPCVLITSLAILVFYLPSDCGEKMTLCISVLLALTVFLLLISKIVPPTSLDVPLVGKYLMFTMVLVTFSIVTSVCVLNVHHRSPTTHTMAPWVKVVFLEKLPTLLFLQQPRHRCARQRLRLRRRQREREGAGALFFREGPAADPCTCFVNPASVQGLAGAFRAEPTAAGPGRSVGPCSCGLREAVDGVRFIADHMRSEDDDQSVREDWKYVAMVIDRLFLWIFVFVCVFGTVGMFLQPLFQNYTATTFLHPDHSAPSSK
# UniProt P12390, 25-500 limits assumed: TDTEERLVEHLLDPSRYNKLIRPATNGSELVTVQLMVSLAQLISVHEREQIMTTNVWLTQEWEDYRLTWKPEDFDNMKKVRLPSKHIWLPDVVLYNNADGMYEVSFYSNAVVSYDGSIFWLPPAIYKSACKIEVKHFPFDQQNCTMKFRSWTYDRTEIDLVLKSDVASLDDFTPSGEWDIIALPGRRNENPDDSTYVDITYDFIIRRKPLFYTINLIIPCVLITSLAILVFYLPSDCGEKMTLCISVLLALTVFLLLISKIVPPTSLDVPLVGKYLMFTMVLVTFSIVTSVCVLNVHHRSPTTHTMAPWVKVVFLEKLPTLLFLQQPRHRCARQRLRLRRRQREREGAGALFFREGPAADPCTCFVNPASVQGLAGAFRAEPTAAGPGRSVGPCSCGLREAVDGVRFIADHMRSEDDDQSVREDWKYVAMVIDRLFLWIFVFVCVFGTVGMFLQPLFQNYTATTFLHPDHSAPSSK
# UniProt P43143, whole entry M241L/F253L/V303I/V320I/I327V/A333T/K339T, looked up: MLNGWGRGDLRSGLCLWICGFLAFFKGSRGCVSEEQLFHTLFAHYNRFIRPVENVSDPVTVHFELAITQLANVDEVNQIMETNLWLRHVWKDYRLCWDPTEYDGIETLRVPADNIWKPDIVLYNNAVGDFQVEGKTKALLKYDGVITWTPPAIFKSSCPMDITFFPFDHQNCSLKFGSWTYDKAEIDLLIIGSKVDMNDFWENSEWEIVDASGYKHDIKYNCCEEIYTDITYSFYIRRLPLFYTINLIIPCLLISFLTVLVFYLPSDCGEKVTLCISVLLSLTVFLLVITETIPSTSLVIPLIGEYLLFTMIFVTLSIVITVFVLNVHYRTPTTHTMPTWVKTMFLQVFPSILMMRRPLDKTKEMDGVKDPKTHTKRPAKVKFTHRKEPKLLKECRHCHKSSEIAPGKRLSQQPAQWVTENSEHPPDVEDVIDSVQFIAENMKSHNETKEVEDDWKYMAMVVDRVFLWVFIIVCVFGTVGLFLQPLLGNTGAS
# UniProt P35372, whole entry: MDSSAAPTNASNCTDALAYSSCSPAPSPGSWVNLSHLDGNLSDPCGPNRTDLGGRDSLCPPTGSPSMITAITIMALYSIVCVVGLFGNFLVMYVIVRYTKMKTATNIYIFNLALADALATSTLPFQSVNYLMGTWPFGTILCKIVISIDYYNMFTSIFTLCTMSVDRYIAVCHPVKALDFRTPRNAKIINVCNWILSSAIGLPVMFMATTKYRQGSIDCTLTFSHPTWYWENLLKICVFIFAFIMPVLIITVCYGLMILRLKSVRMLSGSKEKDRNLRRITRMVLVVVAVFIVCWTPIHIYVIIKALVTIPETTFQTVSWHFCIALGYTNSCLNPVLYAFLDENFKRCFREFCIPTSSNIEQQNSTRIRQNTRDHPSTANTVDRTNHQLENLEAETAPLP
# UniProt P36544, 23-502 limits assumed: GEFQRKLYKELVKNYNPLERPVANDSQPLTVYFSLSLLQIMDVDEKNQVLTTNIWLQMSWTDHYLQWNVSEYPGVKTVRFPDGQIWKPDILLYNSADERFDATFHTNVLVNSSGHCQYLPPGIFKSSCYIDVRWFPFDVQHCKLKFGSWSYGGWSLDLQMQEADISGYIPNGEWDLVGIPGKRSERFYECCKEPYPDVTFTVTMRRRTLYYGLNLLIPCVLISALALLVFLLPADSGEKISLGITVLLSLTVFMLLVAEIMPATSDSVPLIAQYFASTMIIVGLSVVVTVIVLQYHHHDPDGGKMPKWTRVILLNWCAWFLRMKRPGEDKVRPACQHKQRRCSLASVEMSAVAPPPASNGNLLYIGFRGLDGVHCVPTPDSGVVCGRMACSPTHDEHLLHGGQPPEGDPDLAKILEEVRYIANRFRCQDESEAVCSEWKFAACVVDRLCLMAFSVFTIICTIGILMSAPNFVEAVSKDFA
# UniProt P41146, whole entry: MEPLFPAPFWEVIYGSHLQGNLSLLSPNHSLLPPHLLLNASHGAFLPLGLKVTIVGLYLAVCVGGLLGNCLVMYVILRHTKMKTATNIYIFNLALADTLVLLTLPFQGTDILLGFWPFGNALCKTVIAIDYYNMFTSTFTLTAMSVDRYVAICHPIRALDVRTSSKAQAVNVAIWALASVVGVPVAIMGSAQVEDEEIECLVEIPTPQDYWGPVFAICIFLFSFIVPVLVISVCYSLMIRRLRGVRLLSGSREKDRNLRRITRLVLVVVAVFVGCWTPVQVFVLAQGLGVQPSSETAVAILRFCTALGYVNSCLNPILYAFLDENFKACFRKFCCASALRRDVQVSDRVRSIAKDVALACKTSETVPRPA
# UniProt P06401, whole entry: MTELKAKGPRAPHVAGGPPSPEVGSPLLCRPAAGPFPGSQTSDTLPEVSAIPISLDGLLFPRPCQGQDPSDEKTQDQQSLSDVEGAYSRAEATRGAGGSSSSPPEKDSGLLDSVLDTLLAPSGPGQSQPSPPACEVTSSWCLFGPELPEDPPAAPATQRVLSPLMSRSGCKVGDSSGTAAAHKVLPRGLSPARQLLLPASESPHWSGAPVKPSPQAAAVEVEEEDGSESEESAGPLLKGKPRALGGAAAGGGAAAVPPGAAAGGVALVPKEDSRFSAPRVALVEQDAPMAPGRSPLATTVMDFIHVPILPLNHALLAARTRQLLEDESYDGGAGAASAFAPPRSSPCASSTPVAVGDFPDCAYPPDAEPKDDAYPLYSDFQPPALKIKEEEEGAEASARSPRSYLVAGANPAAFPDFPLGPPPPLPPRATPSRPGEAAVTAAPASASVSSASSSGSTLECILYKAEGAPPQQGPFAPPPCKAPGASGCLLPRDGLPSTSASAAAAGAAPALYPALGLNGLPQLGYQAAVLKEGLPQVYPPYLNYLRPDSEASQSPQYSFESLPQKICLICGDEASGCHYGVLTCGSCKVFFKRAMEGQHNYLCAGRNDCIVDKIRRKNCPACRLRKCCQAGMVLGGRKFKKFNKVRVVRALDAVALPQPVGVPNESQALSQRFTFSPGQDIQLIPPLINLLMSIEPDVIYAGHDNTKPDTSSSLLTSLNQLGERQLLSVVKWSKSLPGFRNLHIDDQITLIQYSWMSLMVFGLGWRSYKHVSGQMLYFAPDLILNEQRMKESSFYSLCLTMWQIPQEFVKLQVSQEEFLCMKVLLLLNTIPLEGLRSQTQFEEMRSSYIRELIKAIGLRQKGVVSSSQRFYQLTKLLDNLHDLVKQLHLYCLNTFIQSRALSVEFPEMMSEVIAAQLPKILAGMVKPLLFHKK
# UniProt P02708, 21-457 limits assumed: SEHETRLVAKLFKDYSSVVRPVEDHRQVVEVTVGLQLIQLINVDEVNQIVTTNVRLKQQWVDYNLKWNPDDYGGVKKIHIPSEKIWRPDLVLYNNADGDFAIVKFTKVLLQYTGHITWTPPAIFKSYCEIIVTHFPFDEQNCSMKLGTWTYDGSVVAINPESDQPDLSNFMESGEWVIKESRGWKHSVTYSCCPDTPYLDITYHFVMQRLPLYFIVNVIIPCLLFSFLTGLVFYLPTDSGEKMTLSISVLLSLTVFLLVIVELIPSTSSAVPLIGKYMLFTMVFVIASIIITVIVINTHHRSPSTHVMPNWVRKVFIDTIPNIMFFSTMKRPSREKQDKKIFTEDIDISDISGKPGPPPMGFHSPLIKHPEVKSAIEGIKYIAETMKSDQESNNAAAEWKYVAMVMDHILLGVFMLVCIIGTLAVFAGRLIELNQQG
# UniProt P11230, 24-501 partner limits assumed: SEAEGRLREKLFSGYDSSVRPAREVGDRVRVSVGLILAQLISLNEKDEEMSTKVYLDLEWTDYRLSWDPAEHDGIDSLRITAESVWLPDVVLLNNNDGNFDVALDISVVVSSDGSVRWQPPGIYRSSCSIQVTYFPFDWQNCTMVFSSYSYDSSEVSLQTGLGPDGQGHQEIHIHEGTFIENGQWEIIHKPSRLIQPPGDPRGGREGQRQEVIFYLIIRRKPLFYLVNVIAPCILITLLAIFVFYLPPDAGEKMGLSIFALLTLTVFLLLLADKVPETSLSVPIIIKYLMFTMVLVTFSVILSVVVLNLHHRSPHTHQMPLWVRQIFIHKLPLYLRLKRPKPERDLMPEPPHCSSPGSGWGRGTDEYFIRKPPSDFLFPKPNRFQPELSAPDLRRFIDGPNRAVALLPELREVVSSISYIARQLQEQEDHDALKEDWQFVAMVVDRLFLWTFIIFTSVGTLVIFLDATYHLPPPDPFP
# UniProt Q04844, 21-493 limits assumed: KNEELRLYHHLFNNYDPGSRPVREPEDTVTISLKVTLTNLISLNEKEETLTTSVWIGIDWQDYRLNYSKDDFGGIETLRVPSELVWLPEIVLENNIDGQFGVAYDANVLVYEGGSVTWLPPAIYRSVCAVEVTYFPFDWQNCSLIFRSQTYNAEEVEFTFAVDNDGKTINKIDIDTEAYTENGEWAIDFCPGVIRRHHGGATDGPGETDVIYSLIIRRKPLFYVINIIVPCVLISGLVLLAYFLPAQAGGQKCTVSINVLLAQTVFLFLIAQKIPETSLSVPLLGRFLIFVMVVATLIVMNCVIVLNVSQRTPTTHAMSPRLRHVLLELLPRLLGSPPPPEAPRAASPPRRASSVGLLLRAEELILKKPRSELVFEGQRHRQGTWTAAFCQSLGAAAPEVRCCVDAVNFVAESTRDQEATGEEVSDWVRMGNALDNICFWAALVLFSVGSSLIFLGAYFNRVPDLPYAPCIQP
# UniProt Q07001, 22-517 limits assumed: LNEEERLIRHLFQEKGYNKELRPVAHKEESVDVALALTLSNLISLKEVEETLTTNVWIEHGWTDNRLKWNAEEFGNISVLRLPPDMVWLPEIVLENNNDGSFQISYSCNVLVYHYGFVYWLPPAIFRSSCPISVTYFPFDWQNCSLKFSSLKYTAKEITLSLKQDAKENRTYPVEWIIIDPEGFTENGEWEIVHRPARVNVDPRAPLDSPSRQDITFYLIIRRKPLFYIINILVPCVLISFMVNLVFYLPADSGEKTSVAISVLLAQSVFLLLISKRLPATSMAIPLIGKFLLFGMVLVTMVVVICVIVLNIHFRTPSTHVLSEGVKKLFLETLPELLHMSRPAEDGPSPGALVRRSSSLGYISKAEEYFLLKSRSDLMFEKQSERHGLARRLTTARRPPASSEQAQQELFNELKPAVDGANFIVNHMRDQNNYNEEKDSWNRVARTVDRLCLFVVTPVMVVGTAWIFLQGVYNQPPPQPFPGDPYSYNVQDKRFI
# Protocols differ between the studies behind these lines. ± marks the error that the study gave.
# Botulinum neurotoxin type A light chain: Botulinum neurotoxin type A, light chain (Clostridium botulinum, UniProt P0DPI0)
# rep R3428I 3C-like proteinase: Replicase polyprotein 1ab, 3C-like proteinase (rep, Severe acute respiratory syndrome-related coronavirus, UniProt P0C6X7, R3428I)
# Chrna3/Chrnb2/Chrna6 with beta3 subunit: Chrna3/Chrnb2/Chrna6, with beta3 subunit (Rattus norvegicus, UniProt P04757+P12390+P43143)
# rep main protease: Replicase polyprotein 1ab, main protease (rep, Severe acute respiratory syndrome coronavirus 2, UniProt P0DTD1)
# Ricin A chain: Ricin, A chain (Ricinus communis, UniProt P02879)
# Replicase polyprotein 1a R3428I 3C-like proteinase: Replicase polyprotein 1a, 3C-like proteinase (Severe acute respiratory syndrome-related coronavirus, UniProt P0C6U8, R3428I)
SMILES,target or system,assay,test system,conditions,quantity,value
CC(C)C[C@@H]1NC(=O)[C@H](CCC(=O)O)NC(=O)[C@@H]2CCCN2C(=O)[C@H](Cc2c[nH]cn2)NC(=O)[C@H](CC(N)=O)NC(=O)[C@H](C(C)C)NC(=O)[C@H](CC(N)=O)NC(=O)[C@@H]2CSSC[C@H](NC(=O)CN)C(=O)N[C@@H](CSSC[C@@H](C(N)=O)NC1=O)C(=O)N[C@@H](CO)C(=O)N[C@@H](Cc1c[nH]cn1)C(=O)N1CCC[C@H]1C(=O)N[C@@H](C)C(=O)N2,"Neuronal acetylcholine receptor; alpha3/beta2 (Rattus norvegicus, UniProt P04757+P12390)","ion current, antagonist, two-electrode voltage clamp",Xenopus laevis oocytes,with: 100 µM acetylcholine,IC50,0.00932 µM
CC(=O)Nc1ccc(/C=N/Nc2ccc(C(=O)c3c(C)cc4ccccn34)cc2[N+](=O)[O-])cc1,Botulinum neurotoxin type A light chain,"inhibitor, FRET, SNAPtide substrate",,no reducing agent,IC50,6 ± 6 µM
CC(C)(C)C(=O)OC[C@H](NC(=O)/C=C/c1ccccc1)C(=O)NC1CCCCC1,rep R3428I 3C-like proteinase,"enzyme activity, inhibitor, HPLC substrate depletion",,pH 4.0,IC50,450 µM
CC[C@H](C)[C@@H]1NC(=O)[C@H](CO)NC(=O)[C@@H]2CSSC[C@H](NC(=O)CN)C(=O)N[C@@H](CSSC[C@@H](C(N)=O)NC(=O)[C@H](CC(C)C)NC(=O)[C@H](CCC(=O)O)NC(=O)[C@@H]3CCCN3C(=O)[C@H](Cc3c[nH]cn3)NC(=O)[C@H](CC(N)=O)NC1=O)C(=O)N[C@@H](CO)C(=O)N[C@@H](Cc1c[nH]cn1)C(=O)N1CCC[C@H]1C(=O)N[C@@H](C)C(=O)N2,Chrna3/Chrnb2/Chrna6 with beta3 subunit,"ion current, antagonist, two-electrode voltage clamp",Xenopus laevis oocytes,with: 100 µM acetylcholine,IC50,0.0134 µM
C=C(COC(C)=O)[C@@H]1CCC(C)=C[C@H]1c1c(O)cc(CCCCC)cc1O,"OPRM1 (Homo sapiens, UniProt P35372)","cAMP level, antagonist",HEK293 expressing human µ-opioid receptor,with: fentanyl 500 pM (EC95),IC50,0.619 µM
O=C(/C=C/c1ccccc1)N[C@@H](CO)C(=O)NC1CCCCC1,rep R3428I 3C-like proteinase,"enzyme activity, inhibitor, HPLC substrate depletion",,pH 4.0,IC50,1500 µM
O=C(NCc1cccs1)[C@@H]1CN(C(=O)c2cccnc2)CCN1c1ccc(Cl)c(Cl)c1,rep main protease,"enzyme activity, inhibitor",,,IC50,0.05 µM
CC(=O)N[C@H](C(=O)N[C@@H](CC(C)C)C(=O)N[C@@H](C[C@@H]1CCNC1=O)C(=O)c1nccs1)C(C)C,rep R3428I 3C-like proteinase,"enzyme activity, inhibitor, HPLC",,"60 min, 37 °C, with: substrate 111 µM",IC50,24 µM
COc1c(-c2coc3cc4c(cc3c2=O)CC(O)C(C)(C)O4)ccc2c1C=CC(C)(C)O2 (centres unmarked),rep main protease,"luciferase reporter, inhibitor",SARS-CoV-2,48 h,IC50,0.407 µM
O=C(/C=C/c1ccccc1)N[C@H](COC(=O)c1cccnc1)C(=O)NC1CCCCC1,rep R3428I 3C-like proteinase,"enzyme activity, inhibitor, HPLC substrate depletion",,pH 4.0,IC50,240 µM
Cc1ccc(C(=O)Nc2ccc(S(=O)(=O)O)c3cc(S(=O)(=O)O)cc(S(=O)(=O)O)c23)cc1NC(=O)c1cccc(NC(=O)Nc2cccc(C(=O)Nc3cc(C(=O)Nc4ccc(S(=O)(=O)O)c5cc(S(=O)(=O)O)cc(S(=O)(=O)O)c45)ccc3C)c2)c1,"RNA-directed RNA polymerase L, with VP35 (Zaire ebolavirus, UniProt X5H5B6)","RNA synthesis, inhibitor, primer extension",,"1 h, pH 8.0, 30 °C, with: 1 mM CTP, UTP, ATP",IC50,11.2 µM
CSCC[C@H](NC(=O)[C@@H](N)CC(=O)O)C(=O)NCC(=O)N[C@@H](Cc1ccccc1)C(=O)NCC(=O)N[C@@H](CC(C)C)C(=O)N[C@@H](Cc1ccccc1)C(=O)N[C@@H](CC(=O)O)C(=O)O,"Shiga-like toxin 2 subunit A, A1 fragment (UniProt P09385)",ribosome depurination,yeast ribosomes,pH 7.4,IC50,23 ± 4 µM
CC(C)C[C@H](NC(=O)[C@@H](NC(=O)Oc1ccccc1)C(C)C)C(=O)N[C@@H](Cc1c[nH]cn1)C(=O)c1nccs1,rep R3428I 3C-like proteinase,"enzyme activity, inhibitor, HPLC",,"60 min, 37 °C, with: substrate 111 µM",IC50,> 1600 µM
O=C(c1ccc2c(c1)OCO2)C1CCCN(C2CCN(CCc3ccccc3)CC2)C1 (centres unmarked),Botulinum neurotoxin type A light chain,"inhibitor, FRET, SNAPtide substrate",,no reducing agent,IC50,0.5 ± 0.2 µM
O=C(/C=C/c1ccccc1)N[C@@H](COC(=O)Cc1ccccc1)C(=O)NC1CCCCC1,rep R3428I 3C-like proteinase,"enzyme activity, inhibitor, HPLC substrate depletion",,pH 4.0,IC50,650 µM
CC(C)C[C@H](NC(=O)[C@@H](NC(=O)CNCc1ccccc1)C(C)C)C(=O)N[C@@H](C[C@@H]1CCNC1=O)C(=O)c1nc2ccccc2s1,rep R3428I 3C-like proteinase,"enzyme activity, inhibitor, HPLC",,"60 min, 37 °C, with: substrate 111 µM",IC50,7.5 µM
COc1cc(/C=C/C(=O)N[C@H](COC(=O)c2ccccc2)C(=O)NC2CCCCC2)cc(OC)c1,rep R3428I 3C-like proteinase,"enzyme activity, inhibitor, HPLC substrate depletion",,pH 4.0,IC50,80 µM
C[C@@H]1NC(=O)[C@H](CCCNC(=N)N)NC(=O)[C@H](CCCNC(=N)N)NC(=O)[C@H](Cc2c[nH]cn2)NC(=O)[C@H](CO)NC(=O)[C@H](CCCCN)NC(=O)[C@@H]2CSSC[C@H](NC(=O)CN)C(=O)N[C@@H](CSSC[C@@H](C(N)=O)NC(=O)[C@H](CCCNC(=N)N)NC1=O)C(=O)N[C@@H](CO)C(=O)N[C@@H](Cc1c[nH]cn1)C(=O)N1CCC[C@H]1C(=O)N[C@@H](C)C(=O)N2,"CHRNA7 (Homo sapiens, UniProt P36544)","ion current, antagonist, two-electrode voltage clamp",Xenopus oocytes,"holding -70 mV, with: 100 µM acetylcholine",IC50,1.89 µM
CNC(=O)c1cnc2c(=O)[nH]c(N)nc2n1,Ricin A chain,"recovery of translation, inhibitor, in vitro luciferase translation",rabbit reticulocyte lysate,,IC50,1600 µM
CCC1C(=O)N(C2CCN(C/C=C/c3ccccc3)CC2)c2ccccc21 (centres unmarked),"Nociceptin receptor (OPRL1, Homo sapiens, UniProt P41146)",radioligand displacement,,with: [3H]N/OFQ,Ki,> 10 µM
O=C(CCc1ccc(O)cc1)N[C@@H](COC(=O)c1ccccc1)C(=O)NC1CCCCC1,rep R3428I 3C-like proteinase,"enzyme activity, inhibitor, HPLC substrate depletion",,pH 4.0,IC50,> 3200 µM
C[As](O)O,"PGR (Homo sapiens, UniProt P06401)","DNA binding, fluorescence polarization",,with: FITC-labelled GRE DNA,IC50,~0.02 µM
COc1cccc(OCC(=O)N[C@H](C(=O)N[C@@H](CC(C)C)C(=O)N[C@@H](C[C@@H]2CCNC2=O)C(=O)c2nc3ccccc3s2)C(C)C)c1,rep R3428I 3C-like proteinase,"enzyme activity, inhibitor, HPLC",,"60 min, 37 °C, with: substrate 111 µM",IC50,0.75 µM
COc1cc(CNC(=O)c2cnc3c(=O)[nH]c(N)nc3n2)cc(OC)c1OC,Ricin A chain,"recovery of translation, inhibitor, in vitro luciferase translation",rabbit reticulocyte lysate,,IC50,no inhibition
CC(C)C[C@H](NC(=O)[C@@H](NC(=O)COc1ccc([N+](=O)[O-])cc1)C(C)C)C(=O)N[C@@H](C[C@@H]1CCNC1=O)C(=O)c1nc2ccccc2s1,rep R3428I 3C-like proteinase,"enzyme activity, inhibitor, HPLC",,"60 min, 37 °C, with: substrate 111 µM",IC50,3.4 µM
COc1cc(/C=C/C(=O)O[C@@H](C(=O)NC2CCCCC2)[C@@H](NC(=O)/C=C/c2ccccc2)c2ccccc2)cc(OC)c1OC,Replicase polyprotein 1a R3428I 3C-like proteinase,"enzyme activity, inhibitor",,pH 4.0,IC50,250 µM
COc1cc(/C=C/C(=O)N[C@@H](COC(=O)c2ccccc2)C(=O)NC2CCCCC2)cc(OC)c1OC,rep R3428I 3C-like proteinase,"enzyme activity, inhibitor, HPLC substrate depletion",,pH 4.0,IC50,74 µM
CC(C)C[C@@H]1NC(=O)[C@H](CCC(N)=O)NC(=O)[C@@H]2CCCN2C(=O)[C@H](Cc2c[nH]cn2)NC(=O)[C@H](CC(N)=O)NC(=O)[C@H](C(C)C)NC(=O)[C@H](CO)NC(=O)[C@@H]2CSSC[C@H](NC(=O)CN)C(=O)N[C@@H](CSSC[C@@H](C(N)=O)NC1=O)C(=O)N[C@@H](CO)C(=O)N[C@@H](Cc1c[nH]cn1)C(=O)N1CCC[C@H]1C(=O)N[C@@H](C)C(=O)N2,Chrna3/Chrnb2/Chrna6 with beta3 subunit,"ion current, antagonist, two-electrode voltage clamp",Xenopus laevis oocytes,with: 100 µM acetylcholine,IC50,0.0144 µM
CC(C)[C@@H]1NC(=O)[C@@H]2CCCN2C(=O)[C@H](Cc2c[nH]cn2)NC(=O)[C@H](CO)NC(=O)[C@@H]2CSSC[C@@H](C(=O)NCC(N)=O)NC(=O)[C@H](CC(N)=O)NC(=O)[C@@H]3CCCN3C(=O)[C@H](CC(N)=O)NC(=O)[C@H](CCCCN)NC(=O)[C@H]([C@@H](C)O)NC(=O)[C@H](Cc3ccc(O)cc3)NC(=O)[C@H](CSSC[C@H](NC(=O)CNC(=O)CN)C(=O)N2)NC1=O,"Nicotinic acetylcholine receptor alpha-1/beta-1/delta/epsilon (Homo sapiens, UniProt P02708+P11230+Q04844+Q07001)","ion current, antagonist, two-electrode voltage clamp",Xenopus laevis oocytes,"holding -70 mV, with: 10 µM acetylcholine",IC50,> 10 µM
O=C(/C=C/c1ccccc1)N[C@@H](c1ccccc1)[C@@H](OC(=O)/C=C/c1ccccc1)C(=O)NC1CCCCC1,Replicase polyprotein 1a R3428I 3C-like proteinase,"enzyme activity, inhibitor",,pH 4.0,IC50,85 µM
CC[C@H](C)[C@@H]1NC(=O)[C@H](CCC(=O)O)NC(=O)[C@@H]2CCCN2C(=O)[C@H](Cc2c[nH]cn2)NC(=O)[C@H](CCCCC(=O)O)NC(=O)[C@H](CC(C)C)NC(=O)[C@H](Cc2c[nH]cn2)NC(=O)[C@@H]2CSSC[C@H](NC(=O)CN)C(=O)N[C@@H](CSSC[C@@H](C(N)=O)NC1=O)C(=O)N[C@@H](CO)C(=O)N[C@@H](Cc1c[nH]cn1)C(=O)N1CCC[C@H]1C(=O)N[C@@H](C)C(=O)N2,Chrna3/Chrnb2/Chrna6 with beta3 subunit,"ion current, antagonist, two-electrode voltage clamp",Xenopus laevis oocytes,with: 100 µM acetylcholine,IC50,0.0582 µM
O=C(/C=C/Cc1ccccc1)N[C@@H](COC(=O)c1ccccc1)C(=O)NC1CCCCC1,rep R3428I 3C-like proteinase,"enzyme activity, inhibitor, HPLC substrate depletion",,pH 4.0,IC50,500 µM
NC12CC3CC(CC(C3)C1)C2,Influenza A virus,"viral replication, plaque size reduction","MDCK, A/Swine/Iowa/13-0505/2010 (H3N2)",,EC50,< 1 µM
CC1=Nc2ccccc2/C1=C/c1sc(=S)n(-c2cccc(C(=O)O)c2)c1O,Botulinum neurotoxin type A light chain,"inhibitor, FRET, YFP-SNAP25-CFP substrate",,no reducing agent,IC50,70 ± 30 µM
Nc1nc2nc(C(=O)NCc3ccccn3)cnc2c(=O)[nH]1,Ricin A chain,"recovery of translation, inhibitor, in vitro luciferase translation",rabbit reticulocyte lysate,,IC50,500 µM
